Measurements from different studies.
Every numbered part comes from another study and shows a few of its results, in no order.
Sequence of UniProt P06241 (whole entry, looked up): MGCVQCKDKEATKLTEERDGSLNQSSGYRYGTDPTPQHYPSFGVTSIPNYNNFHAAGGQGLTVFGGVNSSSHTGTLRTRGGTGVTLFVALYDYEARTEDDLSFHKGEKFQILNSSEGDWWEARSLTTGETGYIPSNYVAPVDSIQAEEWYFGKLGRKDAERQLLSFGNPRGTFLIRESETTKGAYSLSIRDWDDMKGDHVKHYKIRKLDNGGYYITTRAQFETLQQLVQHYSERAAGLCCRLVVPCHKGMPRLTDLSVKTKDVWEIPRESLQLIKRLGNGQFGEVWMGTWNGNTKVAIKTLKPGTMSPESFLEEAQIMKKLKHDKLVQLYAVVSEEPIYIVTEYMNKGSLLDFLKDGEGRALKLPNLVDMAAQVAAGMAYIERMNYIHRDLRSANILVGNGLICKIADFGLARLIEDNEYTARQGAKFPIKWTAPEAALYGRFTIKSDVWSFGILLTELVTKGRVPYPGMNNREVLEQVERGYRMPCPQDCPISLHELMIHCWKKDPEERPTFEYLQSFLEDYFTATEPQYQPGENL
Sequence of UniProt Q00526 (whole entry, looked up): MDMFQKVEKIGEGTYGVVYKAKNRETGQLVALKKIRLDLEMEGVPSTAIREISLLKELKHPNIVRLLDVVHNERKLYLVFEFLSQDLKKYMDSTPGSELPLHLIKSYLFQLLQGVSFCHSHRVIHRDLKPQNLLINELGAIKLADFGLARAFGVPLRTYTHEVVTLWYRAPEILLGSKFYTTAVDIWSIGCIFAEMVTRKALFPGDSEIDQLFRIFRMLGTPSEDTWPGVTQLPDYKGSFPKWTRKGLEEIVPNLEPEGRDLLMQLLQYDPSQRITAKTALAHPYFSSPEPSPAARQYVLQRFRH
Sequence of UniProt O60285 (whole entry, looked up): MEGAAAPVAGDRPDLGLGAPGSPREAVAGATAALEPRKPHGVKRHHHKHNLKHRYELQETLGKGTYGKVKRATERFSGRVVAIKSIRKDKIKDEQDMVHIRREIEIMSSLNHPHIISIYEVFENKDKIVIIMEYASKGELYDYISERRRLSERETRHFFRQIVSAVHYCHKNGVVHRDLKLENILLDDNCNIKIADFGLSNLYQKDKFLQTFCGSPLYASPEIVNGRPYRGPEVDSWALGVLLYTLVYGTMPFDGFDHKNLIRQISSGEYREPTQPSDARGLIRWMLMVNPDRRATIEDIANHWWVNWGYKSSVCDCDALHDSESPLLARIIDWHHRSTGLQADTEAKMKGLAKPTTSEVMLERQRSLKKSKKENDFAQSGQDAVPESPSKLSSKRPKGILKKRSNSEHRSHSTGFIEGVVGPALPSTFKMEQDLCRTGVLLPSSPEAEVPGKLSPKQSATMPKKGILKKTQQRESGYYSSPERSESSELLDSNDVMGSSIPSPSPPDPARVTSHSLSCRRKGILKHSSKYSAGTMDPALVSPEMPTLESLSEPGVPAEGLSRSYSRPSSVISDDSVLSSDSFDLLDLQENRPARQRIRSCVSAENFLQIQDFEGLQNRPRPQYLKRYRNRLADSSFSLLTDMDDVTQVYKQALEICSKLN
Sequence of UniProt Q8IY84 (whole entry, looked up): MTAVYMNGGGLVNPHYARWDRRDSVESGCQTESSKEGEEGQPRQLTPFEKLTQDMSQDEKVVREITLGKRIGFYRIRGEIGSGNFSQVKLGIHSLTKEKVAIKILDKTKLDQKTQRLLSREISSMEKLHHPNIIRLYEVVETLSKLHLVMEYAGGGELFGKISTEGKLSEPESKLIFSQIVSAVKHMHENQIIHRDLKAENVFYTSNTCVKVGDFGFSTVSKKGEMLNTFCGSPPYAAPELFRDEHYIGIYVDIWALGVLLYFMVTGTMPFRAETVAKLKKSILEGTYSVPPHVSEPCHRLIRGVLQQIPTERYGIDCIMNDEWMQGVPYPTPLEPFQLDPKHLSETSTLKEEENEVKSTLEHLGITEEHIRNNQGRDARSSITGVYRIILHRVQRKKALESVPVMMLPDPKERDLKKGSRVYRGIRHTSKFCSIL
Sequence of UniProt P57078 (whole entry, looked up): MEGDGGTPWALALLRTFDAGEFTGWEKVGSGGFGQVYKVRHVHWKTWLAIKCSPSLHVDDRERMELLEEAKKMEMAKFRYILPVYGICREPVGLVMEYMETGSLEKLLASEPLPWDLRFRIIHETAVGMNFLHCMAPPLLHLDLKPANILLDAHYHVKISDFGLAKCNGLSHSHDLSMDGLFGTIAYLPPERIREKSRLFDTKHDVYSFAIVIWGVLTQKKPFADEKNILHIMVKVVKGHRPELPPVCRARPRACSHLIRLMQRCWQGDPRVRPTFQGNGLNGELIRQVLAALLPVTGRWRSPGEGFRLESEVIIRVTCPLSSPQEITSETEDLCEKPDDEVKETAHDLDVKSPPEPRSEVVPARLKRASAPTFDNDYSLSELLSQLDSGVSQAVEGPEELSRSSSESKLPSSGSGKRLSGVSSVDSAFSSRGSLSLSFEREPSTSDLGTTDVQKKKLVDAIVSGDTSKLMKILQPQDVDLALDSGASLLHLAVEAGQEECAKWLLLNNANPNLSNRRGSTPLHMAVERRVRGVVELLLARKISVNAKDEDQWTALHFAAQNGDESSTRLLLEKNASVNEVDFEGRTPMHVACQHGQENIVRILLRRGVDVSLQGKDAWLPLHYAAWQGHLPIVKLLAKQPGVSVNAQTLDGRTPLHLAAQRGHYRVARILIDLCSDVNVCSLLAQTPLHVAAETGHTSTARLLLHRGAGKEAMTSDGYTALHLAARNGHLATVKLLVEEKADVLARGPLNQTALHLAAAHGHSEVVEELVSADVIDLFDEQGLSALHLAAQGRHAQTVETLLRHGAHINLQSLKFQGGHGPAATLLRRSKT
Sequence of UniProt Q6PHR2 (whole entry, looked up): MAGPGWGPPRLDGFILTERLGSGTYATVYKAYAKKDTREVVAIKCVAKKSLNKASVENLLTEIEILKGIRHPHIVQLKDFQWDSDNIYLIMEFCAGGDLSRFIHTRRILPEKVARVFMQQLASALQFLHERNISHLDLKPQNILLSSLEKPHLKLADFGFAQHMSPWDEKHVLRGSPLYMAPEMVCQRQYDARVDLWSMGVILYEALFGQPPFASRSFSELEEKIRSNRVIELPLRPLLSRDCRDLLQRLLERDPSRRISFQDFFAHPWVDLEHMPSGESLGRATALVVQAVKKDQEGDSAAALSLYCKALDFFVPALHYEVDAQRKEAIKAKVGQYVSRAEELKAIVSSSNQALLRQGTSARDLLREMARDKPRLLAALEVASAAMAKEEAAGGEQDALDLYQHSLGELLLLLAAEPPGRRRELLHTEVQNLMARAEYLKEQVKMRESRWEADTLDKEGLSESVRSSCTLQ
Sequence of UniProt P61075 (whole entry, looked up): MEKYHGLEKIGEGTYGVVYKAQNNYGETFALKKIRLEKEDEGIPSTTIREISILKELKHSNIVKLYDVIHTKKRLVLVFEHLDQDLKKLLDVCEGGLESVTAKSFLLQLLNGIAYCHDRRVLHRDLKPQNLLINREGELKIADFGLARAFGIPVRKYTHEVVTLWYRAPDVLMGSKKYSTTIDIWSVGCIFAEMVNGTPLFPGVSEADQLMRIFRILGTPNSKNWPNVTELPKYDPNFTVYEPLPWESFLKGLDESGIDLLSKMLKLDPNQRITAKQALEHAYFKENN

Sample 1 — observed: thermal unfolding; technique: differential scanning fluorimetry; tested at: 5.5 µM; reading: higher = more unfolded
SMILES: C[C@@H]1CN(c2ccc(-c3cc(C(=O)NCCOCCOCCOCCOCCNC(=O)/C=C/c4[nH]cc(C(=O)N[C@@H](CC(N)=O)c5ccc(F)c(Cl)c5)c4-c4ccc(Cl)cc4F)ccc3F)cc2NC(=O)c2c[nH]c(=O)cc2C(F)(F)F)C[C@H](C)N1C
WDR5: WD repeat-containing protein 5 (WDR5, Homo sapiens, UniProt P61964)
DCAF1: DDB1- and CUL4-associated factor 1 (DCAF1, Homo sapiens, UniProt Q9Y4B6)
Sequence of UniProt Q9Y4B6 (whole entry, looked up): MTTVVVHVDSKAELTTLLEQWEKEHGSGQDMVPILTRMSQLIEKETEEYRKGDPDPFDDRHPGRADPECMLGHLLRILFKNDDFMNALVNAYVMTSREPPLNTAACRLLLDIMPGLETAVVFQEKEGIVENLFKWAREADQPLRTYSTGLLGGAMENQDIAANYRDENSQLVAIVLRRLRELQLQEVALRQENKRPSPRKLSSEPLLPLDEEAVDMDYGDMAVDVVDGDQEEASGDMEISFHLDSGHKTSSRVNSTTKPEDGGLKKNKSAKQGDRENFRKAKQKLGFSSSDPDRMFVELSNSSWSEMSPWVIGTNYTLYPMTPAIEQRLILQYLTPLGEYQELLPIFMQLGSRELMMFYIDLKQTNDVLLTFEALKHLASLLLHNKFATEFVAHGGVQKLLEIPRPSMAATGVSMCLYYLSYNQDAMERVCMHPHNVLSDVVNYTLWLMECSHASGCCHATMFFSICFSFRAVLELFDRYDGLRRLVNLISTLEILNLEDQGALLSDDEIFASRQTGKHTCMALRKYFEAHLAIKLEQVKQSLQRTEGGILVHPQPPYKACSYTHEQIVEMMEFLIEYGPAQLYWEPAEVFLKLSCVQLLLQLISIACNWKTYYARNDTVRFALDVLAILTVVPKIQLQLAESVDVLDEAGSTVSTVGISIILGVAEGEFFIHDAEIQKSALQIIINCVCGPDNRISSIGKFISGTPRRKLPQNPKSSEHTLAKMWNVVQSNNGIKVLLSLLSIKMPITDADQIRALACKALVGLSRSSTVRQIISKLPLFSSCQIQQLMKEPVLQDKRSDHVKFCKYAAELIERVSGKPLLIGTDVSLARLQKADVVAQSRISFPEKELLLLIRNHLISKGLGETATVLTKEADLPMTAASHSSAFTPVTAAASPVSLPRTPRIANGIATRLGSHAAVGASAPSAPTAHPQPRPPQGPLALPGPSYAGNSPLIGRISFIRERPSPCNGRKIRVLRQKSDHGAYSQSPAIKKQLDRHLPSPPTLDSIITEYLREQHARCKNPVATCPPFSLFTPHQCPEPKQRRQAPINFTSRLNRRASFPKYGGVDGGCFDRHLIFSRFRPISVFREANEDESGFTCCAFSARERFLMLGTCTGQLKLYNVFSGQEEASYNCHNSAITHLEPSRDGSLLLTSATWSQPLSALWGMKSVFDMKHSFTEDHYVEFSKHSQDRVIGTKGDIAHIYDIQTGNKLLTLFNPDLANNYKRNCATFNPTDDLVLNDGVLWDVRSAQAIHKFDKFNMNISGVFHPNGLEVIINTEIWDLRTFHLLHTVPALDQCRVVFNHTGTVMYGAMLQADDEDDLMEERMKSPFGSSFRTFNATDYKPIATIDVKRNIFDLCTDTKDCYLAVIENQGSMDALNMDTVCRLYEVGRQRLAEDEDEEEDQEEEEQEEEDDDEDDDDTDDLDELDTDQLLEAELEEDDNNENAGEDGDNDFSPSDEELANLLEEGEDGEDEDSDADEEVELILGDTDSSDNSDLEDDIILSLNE
The “SYPRO Orange fluorescence” was 22500 a.u. (WDR5; 73.61 °C).
It gave 12800 a.u. for “SYPRO Orange fluorescence” (WDR5; 31 °C).
The “SYPRO Orange fluorescence” was 52600 a.u. (WDR5; 88.61 °C).
For DCAF1; 49.2 °C: “SYPRO Orange fluorescence” read 14800 a.u.
For DCAF1; 71.41 °C: “SYPRO Orange fluorescence” read 54100 a.u.
It gave 13800 a.u. for “SYPRO Orange fluorescence” (WDR5; 37.4 °C).
For WDR5; 91.81 °C: “SYPRO Orange fluorescence” read 48700 a.u.
It gave 16100 a.u. for “SYPRO Orange fluorescence” (WDR5; 70.01 °C).

Sample 2 — tested at: 1 µM
SMILES: CC[C@@]1(c2cccc(-c3c(F)cncc3OC)c2)C2=C(Nc3n[nH]cc31)[C@H](F)C(C)(C)CC2=O (single isomer, unassigned)
For Mitogen-activated protein kinase 6 (MAPK6, Homo sapiens, UniProt Q16659); kinase binding, KINOMEscan; baseline: DMSO control: remaining binding read 100%.
Receptor-interacting serine/threonine-protein kinase 4 (RIPK4, Homo sapiens, UniProt P57078); binding, competition with immobilised ligand — remaining binding: 66%.
The remaining binding was 100% (NUAK family SNF1-like kinase 1 (NUAK1, Homo sapiens, UniProt O60285); binding, competition with immobilised ligand).
The remaining binding was 59% (Mitogen-activated protein kinase 9 (MAPK9, Homo sapiens, UniProt P45984); binding, competition with immobilised ligand).
The remaining binding was 61% (Serine/threonine-protein kinase NIM1 (NIM1K, Homo sapiens, UniProt Q8IY84); binding, competition with immobilised ligand).
It gave 72% for remaining binding (Serine/threonine-protein kinase PAK 3 (PAK3, Homo sapiens, UniProt O75914); binding, competition with immobilised ligand).
For Serine/threonine-protein kinase Nek7 (NEK7, Homo sapiens, UniProt Q8TDX7); binding, competition with immobilised ligand: remaining binding read 100%.
It gave 100% for remaining binding (Serine/threonine-protein kinase 35 (STK35, Homo sapiens, UniProt Q8TDR2); binding, competition with immobilised ligand).
The remaining binding was 43% (Cyclin-dependent kinase 2 homolog (CRK2, Plasmodium falciparum, UniProt P61075); binding, competition with immobilised ligand).
The remaining binding was 73% (ALK tyrosine kinase receptor (ALK, Homo sapiens, UniProt Q9UM73, C1156Y); kinase binding, KINOMEscan; baseline: DMSO control).
The remaining binding was 100% (Tyrosine-protein kinase Fyn (FYN, Homo sapiens, UniProt P06241); binding, competition with immobilised ligand).
It gave 100% for remaining binding (Serine/threonine-protein kinase 24 (STK24, Homo sapiens, UniProt Q9Y6E0); kinase binding, KINOMEscan; baseline: DMSO control).

Sample 3 — host: CD-1 mouse, female; sample: plasma; route: intravenous; dose: 1 mg/kg
Cc1ccc(O)c(C)c1-c1cnc2[nH]c(-c3cnc(N4CC5(CC(CN6CCN(c7ccc(NC8CCC(=O)NC8=O)cc7F)CC6)C5)C4)nc3)cc2c1C#N (stereo not drawn) has a plasma clearance of 86.2 mL/min/kg.
Cc1ccc(O)c(C)c1-c1cnc2[nH]c(-c3cnc(N4CCC5(CC4)CC(N4CCN(c6ccc(NC7CCC(=O)NC7=O)cc6F)CC4)CO5)nc3)cc2c1C#N (stereo not drawn) has a plasma clearance of 56.8 mL/min/kg.
For Cc1ccc(O)c(C)c1-c1cnc2[nH]c(-c3cnc(N4CCC(CN5CCN(c6cc7c(cc6F)n(C6CCC(=O)NC6=O)c(=O)n7C)CC5)CC4)nc3)cc2c1C#N (stereo not drawn), the plasma clearance was 45.5 mL/min/kg.
Cc1ccc(O)c(C)c1-c1cnc2[nH]c(-c3cnc(N4CCC5(CC4)CC(CN4CCN(c6ccc(NC7CCC(=O)NC7=O)cc6F)CC4)C5)nc3)cc2c1C#N (stereo not drawn) has a plasma clearance of 26.9 mL/min/kg.

Sample 4 — technique: NanoBRET; tested at: 1 µM
SMILES: COc1cc(-c2nc3ccc(C(=O)NCCCN(C)C)cc3n2C2CCC2)cc(OC)c1OC
For Hepatocyte growth factor receptor (MET, Homo sapiens, UniProt P08581): target occupancy read 8.88%.
For Tyrosine-protein kinase Fyn (FYN, Homo sapiens, UniProt P06241): target occupancy read -0.08%.
The target occupancy was 1.71% (High affinity nerve growth factor receptor (NTRK1, Homo sapiens, UniProt P04629)).
Aurora kinase C (AURKC, Homo sapiens, UniProt Q9UQB9) — target occupancy: 2.85%.
Homeodomain-interacting protein kinase 4 (HIPK4, Homo sapiens, UniProt Q8NE63) — target occupancy: 1.16%.
For Serine/threonine-protein kinase ULK3 (ULK3, Homo sapiens, UniProt Q6PHR2): target occupancy read -0.41%.
The target occupancy was 0.23% (Cyclin-dependent kinase 3, with cyclin E1 (CDK3, Homo sapiens, UniProt Q00526)).
The target occupancy was -2.51% (Tyrosine-protein kinase ITK/TSK (ITK, Homo sapiens, UniProt Q08881)).
The target occupancy was 1.56% (Tyrosine-protein kinase Lck (LCK, Homo sapiens, UniProt P06239)).
It gave -8% for target occupancy (Protein-tyrosine kinase 2-beta (PTK2B, Homo sapiens, UniProt Q14289)).
Receptor-type tyrosine-protein kinase FLT3 (FLT3, Homo sapiens, UniProt P36888) — target occupancy: -1.94%.
AP2-associated protein kinase 1 (AAK1, Homo sapiens, UniProt Q2M2I8) — target occupancy: 3.46%.
